# Experimental data from different studies.
# Protocols differ between the studies behind these lines.
# PIK3CA E542K with p85 alpha: Phosphatidylinositol 4,5-bisphosphate 3-kinase catalytic subunit alpha isoform, with p85 alpha (PIK3CA, Homo sapiens, UniProt P42336, E542K)
# Sequence of UniProt P42336 (whole entry, unmodified, looked up): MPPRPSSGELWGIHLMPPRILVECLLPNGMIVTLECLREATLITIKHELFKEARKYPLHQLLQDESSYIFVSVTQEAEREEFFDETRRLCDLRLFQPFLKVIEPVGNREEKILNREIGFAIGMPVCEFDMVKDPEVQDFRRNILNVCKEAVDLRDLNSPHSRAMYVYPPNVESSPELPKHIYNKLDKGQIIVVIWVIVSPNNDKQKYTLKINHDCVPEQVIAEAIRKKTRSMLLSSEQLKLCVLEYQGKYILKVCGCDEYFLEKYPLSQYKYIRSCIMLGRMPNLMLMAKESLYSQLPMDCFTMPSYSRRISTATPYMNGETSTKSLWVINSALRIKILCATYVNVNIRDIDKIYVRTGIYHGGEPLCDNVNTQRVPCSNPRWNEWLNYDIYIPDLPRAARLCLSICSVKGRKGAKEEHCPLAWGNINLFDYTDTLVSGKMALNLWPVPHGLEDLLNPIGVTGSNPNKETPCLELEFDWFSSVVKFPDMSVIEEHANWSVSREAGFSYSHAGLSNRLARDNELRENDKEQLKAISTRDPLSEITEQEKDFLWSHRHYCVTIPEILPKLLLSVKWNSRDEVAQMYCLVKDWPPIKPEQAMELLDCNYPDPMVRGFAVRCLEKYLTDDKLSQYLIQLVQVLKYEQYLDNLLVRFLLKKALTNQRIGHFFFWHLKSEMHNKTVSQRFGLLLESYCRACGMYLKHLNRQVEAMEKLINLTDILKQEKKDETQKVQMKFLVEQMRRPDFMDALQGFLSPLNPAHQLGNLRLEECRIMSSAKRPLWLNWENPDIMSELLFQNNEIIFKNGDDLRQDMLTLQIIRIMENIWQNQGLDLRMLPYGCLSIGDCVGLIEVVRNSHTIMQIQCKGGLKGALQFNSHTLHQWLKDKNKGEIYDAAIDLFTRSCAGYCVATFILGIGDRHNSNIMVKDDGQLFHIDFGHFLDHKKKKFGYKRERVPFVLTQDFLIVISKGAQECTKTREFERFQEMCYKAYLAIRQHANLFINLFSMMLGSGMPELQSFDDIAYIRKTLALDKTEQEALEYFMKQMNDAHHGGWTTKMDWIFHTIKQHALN
# UCHL1: Ubiquitin carboxyl-terminal hydrolase isozyme L1 (UCHL1, Homo sapiens, UniProt P09936)
# Sequence of UniProt P09936 (whole entry, looked up): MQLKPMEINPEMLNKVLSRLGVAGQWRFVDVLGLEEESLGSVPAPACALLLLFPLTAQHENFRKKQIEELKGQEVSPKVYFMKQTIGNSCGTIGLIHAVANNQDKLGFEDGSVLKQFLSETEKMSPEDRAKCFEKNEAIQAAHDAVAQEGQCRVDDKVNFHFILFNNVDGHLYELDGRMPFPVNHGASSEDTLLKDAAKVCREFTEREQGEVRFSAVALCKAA
# PIK3CA with p85 alpha: Phosphatidylinositol 4,5-bisphosphate 3-kinase catalytic subunit alpha isoform, with p85 alpha (PIK3CA, Homo sapiens, UniProt P42336)
Compound,target,assay,setting,how to read,measurement,result
C=CC(=O)N1CCC(COCC(=O)N2CCN(c3nc(-c4cnc(N)nc4C(F)F)nc(N4CCOC[C@@H]4C)n3)CC2)CC1,"Phosphatidylinositol 4,5-bisphosphate 3-kinase catalytic subunit alpha isoform (PIK3CA, Homo sapiens, UniProt P42336, E545K)",KINOMEscan,1 µM,,remaining binding,0%
O=C(CSc1nc2nccnc2c(=O)n1CCc1ccccc1)Nc1nccs1,"Phosphatidylinositol 4,5-bisphosphate 3-kinase catalytic subunit alpha isoform, with p55 gamma (PIK3CA, Homo sapiens, UniProt P42336)","kinase activity, inhibitor","10 µM, together with: PIK3R3 complex",,inhibition,27%
Cc1cc(NC(=O)c2cccc3cc(-c4cccc5[nH]nc(N)c45)ccc23)ccc1F,PIK3CA E542K with p85 alpha,inhibitor,0.1 µM,,remaining activity,98%
CC1CC(O)(C#CC(C)(C)OC(=O)c2ccccc2)C(C)CN1C (stereo not shown),UCHL1,"covalent, intact protein LC-MS",12.5 µM,,labelling,31.5%
Cc1ccc(NC(=O)c2ccc(C)c(C(F)(F)F)c2)cc1C#Cc1nn(C2CCC(O)CC2)c2ncnc(N)c12 (stereo not shown),"Phosphatidylinositol 4,5-bisphosphate 3-kinase catalytic subunit alpha isoform, with p85 alpha (PIK3CA, Homo sapiens, UniProt P42336, H1047R)","enzyme activity, inhibitor","10 µM, p110a(H1047R)/p85a)(h human, together with: ATP 10 µM",,remaining activity,89%
COc1cc(-c2cncc3c2CN(C)Cc2cc(N4CCNCC4)ccc2-3)cc(OC)c1OC,PIK3CA with p85 alpha,kinase activity,"1 µM, p110a/p85a)(h human, together with: ATP 10 µM",relative to: DMSO,remaining activity,97%
O=C(NC1CCC1)c1ccc2nc(-c3cccc(NS(=O)(=O)NCCN4CCCCC4)c3)cn2c1,"Phosphatidylinositol 4,5-bisphosphate 3-kinase catalytic subunit alpha isoform (PIK3CA, Homo sapiens, UniProt P42336, E545A)",enzyme activity,10 µM,,remaining activity,100%
Cc1nc(NC(=O)N2CCCC2)sc1-c1csc(C(C)(C)C)n1,"Phosphatidylinositol 4,5-bisphosphate 3-kinase catalytic subunit alpha isoform (PIK3CA, Homo sapiens, UniProt P42336, I771A)",enzyme activity,3 µM,,inhibition,17%
CS(=O)(=O)Nc1cccc(-c2csc(NC(=O)CSc3nc4nccnc4c(=O)n3CCc3ccccc3)n2)c1,PIK3CA E542K with p85 alpha,,"10 µM, E542K with PIK3R1",,inhibition,6%
CN(C)C1CCN(CC#Cc2nn(C3CCCC3)c3nc(NCc4ccccc4)ncc23)C1 (stereo not shown),PIK3CA with p85 alpha,"enzyme activity, inhibitor, Z'-LYTE",10000 nM,,inhibition,-2%
[2H]c1cc(C)c(NC(=O)c2cnc(Nc3cc(N4CCC(O)CC4)nc(C)n3)s2)c(Cl)c1,"Phosphatidylinositol 4,5-bisphosphate 3-kinase catalytic subunit alpha isoform, with PIK3R1 (PIK3CA, Homo sapiens, UniProt P42336)",,0.001 µM,,inhibition,< 50%
Cc1ccc(C(=O)NCc2ccsc2)cc1C#Cc1cn(C(C)C)c2ncnc(N)c12,"Phosphatidylinositol 4,5-bisphosphate 3-kinase catalytic subunit alpha isoform, with p65 alpha (PIK3CA, Homo sapiens, UniProt P42336)",kinase activity,"1 µM, together with: ATP at Km",,remaining activity,100%
CS(=O)(=O)N1CCc2cc(C(=O)CCl)ccc21,UCHL1,"covalent, intact protein LC-MS",12.5 µM,,labelling,54.9%

# Repeated from above:
Compound,target,assay,setting,how to read,measurement,result
CS(=O)(=O)Nc1cccc(-c2csc(NC(=O)CSc3nc4nccnc4c(=O)n3CCc3ccccc3)n2)c1,PIK3CA E542K with p85 alpha,,"10 µM, E542K with PIK3R1",,inhibition,6%
